Published values pooled from the literature.
Compare with care: the assays were run in different laboratories. Several values in a cell are separate wells, animals, samples, runs or records. Numbers after ± are the reported error.
Kir3.1/Kir3.4: Kir3.1/Kir3.4 (Homo sapiens, UniProt P48544+P48549)
AKR1B1: Aldo-keto reductase family 1 member B1 (AKR1B1, Homo sapiens, UniProt P15121)
pyrD: Dihydroorotate dehydrogenase (quinone) (pyrD, Acinetobacter baumannii, UniProt B7GZW7)
T1: riboswitch RNA yjdF aptamer, shortened P1/P3/P4, L3/L4 GAAA (Bacillus subtilis); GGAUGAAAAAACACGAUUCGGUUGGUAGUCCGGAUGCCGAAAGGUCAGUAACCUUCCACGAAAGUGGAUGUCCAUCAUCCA

CCOC(F)(F)c1nnc2cnc(-c3cnc(OCC(F)(F)F)c(F)c3)cn12 — Hill slope (SCN2A (Homo sapiens, UniProt Q99250); persistent sodium current, patch clamp; added: ATX-II): 172
O=C(/C=C/c1ccc(O)c(O)c1)O[C@H](Cc1ccc(O)c(O)c1)C(=O)O — delta Tm (Peroxiredoxin-1 (PRDX1, Homo sapiens, UniProt Q06830); thermal stability, differential scanning fluorimetry; 800 µM; relative to: no compound): 15.1 °C
CCN1CCC[C@H]1CNC(=O)c1c(O)c(Cl)cc(Cl)c1OC — log2 fold change (Probable G-protein coupled receptor 141 (GPR141, Homo sapiens, UniProt Q7Z602); β-arrestin recruitment, TANGO luminescence, measured: GPR141; concentration not given; relative to: basal luminescence): 0.475
CN(C)c1ncnc2nc[nH]c12 — log2 fold change (binding, MIDAS equilibrium dialysis LC-MS; A2AR-BRIL thermostabilized; concentration not given; relative to: no-protein control): 3.7
O=c1nc(SCc2cc(F)cc(C(F)(F)F)c2)nc(SCc2ccc3nc(Cl)ccc3c2)[nH]1 — ATP hydrolysis rate (TOP2A (Homo sapiens, UniProt P11388); ATPase activity; 125 µM, added: ATP 0.1 mM): 0.301 µM/min and 0.851 µM/min
C=CC(=O)N1CCC(COCC(=O)N2CCN(c3nc(-c4cnc(N)nc4C(F)F)nc(N4CCOC[C@@H]4C)n3)CC2)CC1 — remaining binding (BRSK1 (Homo sapiens, UniProt Q8TDC3); KINOMEscan; 1 µM): 100%
O=C(COc1cc(Cl)ccc1Cl)NCc1cccs1 — activity (Kir3.1/Kir3.4; activator, thallium flux; HEK293; concentration not given): inactive
COc1ccc(/C=C2\SC(=O)N(Cc3nc4ccccc4s3)C2=O)cc1 — Hill slope (AKR1B1; enzyme activity, inhibitor): -0.569
CC(=O)NCC(=O)NCC(=O)N[C@H](C(=O)N[C@@H](Cc1ccc(O)cc1)C(=O)N[C@@H](CO)C(=O)N[C@H]1CSSC[C@@H](C(=O)N[C@@H](CCCNC(=N)N)C(=O)N2CCC[C@H]2C(=O)N[C@@H](CCC(N)=O)C(=O)N[C@@H](CCCNC(=N)N)C(=O)NCC(=O)NCCC(=O)N[C@@H](CCCCNC(=O)CN(CC(=O)NCCCC[C@H](NC(=O)CCNC(=O)CNC(=O)[C@H](CCCNC(=N)N)NC(=O)[C@H](CCC(N)=O)NC(=O)[C@@H]2CCCN2C(=O)[C@H](CCCNC(=N)N)NC(=O)[C@@H]2CSSC[C@H](NC(=O)[C@H](CO)NC(=O)[C@H](Cc3ccc(O)cc3)NC(=O)[C@@H](NC(=O)CNC(=O)CNC(C)=O)[C@@H](C)O)C(=O)N[C@@H](Cc3c[nH]cn3)C(=O)N[C@@H](Cc3ccccc3)C(=O)NCC(=O)N[C@@H](C)C(=O)N[C@@H](CC(C)C)C(=O)N[C@@H]([C@@H](C)O)C(=O)N[C@@H](Cc3c[nH]c4ccccc34)C(=O)N[C@@H](C(C)C)C(=O)N2)C(N)=O)C(=O)CCN)C(N)=O)NC(=O)[C@H](C(C)C)NC(=O)[C@H](Cc2c[nH]c3ccccc23)NC(=O)[C@H]([C@@H](C)O)NC(=O)[C@H](CC(C)C)NC(=O)[C@H](C)NC(=O)CNC(=O)[C@H](Cc2ccccc2)NC(=O)[C@H](Cc2c[nH]cn2)NC1=O)[C@@H](C)O — koff (Erythropoietin receptor, extracellular domain (Homo sapiens, UniProt P19235); binding, SPR; 1:1 binding model): 0.000367 s⁻¹
Nc1ncnc2c1ncn2[C@@H]1O[C@H](COP(=O)(O)CP(=O)(O)OP(=O)(O)O)[C@@H](O)[C@H]1O — calcium influx (P2X purinoceptor 1 (P2RX1, Homo sapiens, UniProt P51575, E122A); calcium influx; 3.16 µM; relative to: ionomycin response): 83.5% and 70.7% and 71.9% and 74.8%
Cc1cc2nc3[nH]c(=O)[nH]c(=O)c3nc2cc1C — Kd (T1, riboswitch RNA yjdF aptamer, shortened P1/P3/P4, L3/L4 GAAA (Bacillus subtilis); fluorescence titration; added: 380 nM lumichrome): 0.04 µM
NC/C(=C\F)COc1cccc(Cn2c(=S)[nH]c(=O)c3[nH]cnc32)c1 — inhibition (CACNA1C (Homo sapiens, UniProt Q13936); peak ion current, inhibitor, automated patch clamp; 100 µM, pulse 1, single recording): 38.7% and 28.4%
O=C(c1ccc(C(=O)N2CCC(N3CCCC3)CC2)c(Nc2ccccc2)c1)N1CCC(N2CCCC2)CC1 — diffusion coefficient (Lethal(3)malignant brain tumor-like protein 3 (Homo sapiens, UniProt Q96JM7); FRAP; human cells; 0.01 µM): 0.0428 µm2/s
CCCCC/C=C\C/C=C\C/C=C\C/C=C\CCCC(=O)O — metabolism rate (Cytochrome P450 2J2 (CYP2J2, Homo sapiens, UniProt P51589, L2A/S493A/T318V); substrate; 50 µM): 46.3 ± 1.5 pmol/min/nmol CYP2J2
Cc1ccc(C(C)C)cc1O — Hill coefficient (uncharacterized protein (Solanum tuberosum, UniProt M0ZZL3); enzyme activity): 1 ± 0.1
NCCCCC(=O)O — normalised MST signal (SLC6A6 (Homo sapiens, UniProt P31641, G62A); binding, microscale thermophoresis; 125 µM, room temperature, added: 50 nM labelled protein; higher = more binding): 0.0344
CC1=NCCNC(=O)C1=NNc1ccc(S(N)(=O)=O)cc1 — inhibition (bovine α-glucosidase; enzyme activity, inhibitor, glucose oxidase; 500 µg/mL, added: maltose): 65.9%
C=CC(=O)N1CCC[C@@H](n2nc(-c3ccc(Oc4ccccc4)cc3)c3c(N)ncnc32)C1 — remaining activity (Insulin receptor (INSR, Homo sapiens, UniProt P06213); 10 µM): 145%
C=CCNC1=C2C[C@@H](C)C[C@H](OC)[C@H](O)[C@@H](C)/C=C(\C)[C@H](OC(N)=O)[C@@H](OC)/C=C\C=C(/C)C(=O)NC(=CC1=O)C2=O — protein level (Clarin-1 (CLRN1, Homo sapiens, UniProt P58418, N48K); measured: CLRN1 N48K; D6; 20 µM): no effect
Cc1cc2nc3c(=O)[nH]c(=O)nc-3n(C[C@H](O)[C@H](O)[C@H](O)CO)c2cc1C — log2 fold change (binding, MIDAS equilibrium dialysis LC-MS; A2AR-BRIL thermostabilized; concentration not given; relative to: no-protein control): -0.252
O=C(O)CCn1cccn1 — Kd (Ubiquitin carboxyl-terminal hydrolase 16, ZnF-UBD domain (USP16, Homo sapiens, UniProt Q9Y5T5)): > 1000 µM
Nc1ncnc2c1ncn2[C@@H]1O[C@H](COP(=O)(O)OP(=O)(O)OP(=O)(O)O)[C@@H](O)[C@H]1O — normalized current (P2X purinoceptor 7 (P2rx7, Rattus norvegicus, UniProt Q64663, Q143A); ion current, agonist, two-electrode voltage clamp; Xenopus laevis oocytes; 166 µM; relative to: highest concentration response): 0.741 and 0.546 and 0.332
CC[C@H](C)[C@H](NC(=O)[C@H](CCCCNC(=O)CN(CCNC(=O)CN(CCNC(=O)CN(CCNC(=O)CN(CCNC(=O)[C@H](CCCNC(=N)N)NC(C)=O)C(=O)Cn1ccc(N)nc1=O)C(=O)Cn1cnc2c(=O)[nH]c(N)nc21)C(=O)Cn1cnc2c(=O)[nH]c(N)nc21)C(=O)Cn1ccc(N)nc1=O)NC(=O)[C@H](C)NC(=O)[C@H](CCCNC(=N)N)NC(=O)[C@H](CCCCN)NC(=O)[C@H](CCC(N)=O)NC(=O)[C@H](CCC(N)=O)NC(=O)[C@H](CC(N)=O)NC(=O)[C@@H](NC(=O)[C@H](CC(C)C)NC(=O)[C@H](CC(N)=O)NC(=O)[C@@H]1CCCN1C(=O)[C@H](CC(=O)O)NC(=O)[C@H](CC(C)C)NC(=O)[C@H](C)NC(=O)[C@H](CS)NC(=O)[C@H](CCCC(=O)NCCN(CC(=O)NCCN(CC(=O)NCCN(CC(=O)NCCN(CC(N)=O)C(=O)Cn1cnc2c(=O)[nH]c(N)nc21)C(=O)Cn1ccc(N)nc1=O)C(=O)Cn1ccc(N)nc1=O)C(=O)Cn1cnc2c(=O)[nH]c(N)nc21)NC(=O)[C@H](Cc1c[nH]c2ccccc12)NC(=O)[C@H](Cc1ccc(O)cc1)NC(=O)[C@H](CCCNC(=N)N)NC(=O)[C@H](CC(N)=O)NC(=O)[C@H](CCCNC(=N)N)NC(=O)[C@H](CC1CCCCC1)NC(=O)[C@H](CCC(=O)O)NC(=O)[C@H](CCCCN)NC(=O)[C@H](CO)NC(=O)[C@H](Cc1ccccc1)NC(C)=O)[C@@H](C)O)C(=O)N[C@@H](CCCNC(=N)N)C(=O)N[C@@H](CO)C(=O)N[C@H](C(=O)N[C@@H](Cc1ccc(O)cc1)C(=O)N[C@@H](CCC(=O)O)C(=O)N[C@@H](CCC(=O)O)C(N)=O)[C@@H](C)CC — dissociation half-life (ERBB2 (Homo sapiens, UniProt P04626); binding, SPR): 9.6 min
C=CC(=O)N1CCC(C(=O)NCC(=O)N2CCN(c3nc(-c4cnc(N)nc4C(F)F)nc(N4CCOCC4)n3)CC2)CC1 — remaining binding (PIP5K1C (Homo sapiens, UniProt O60331); KINOMEscan; 1 µM): 85%
[H]/N=C(/N)NCC(=O)O — normalised MST signal (SLC6A6 (Homo sapiens, UniProt P31641, Y138A); binding, microscale thermophoresis; 62.5 µM, room temperature, added: 50 nM labelled protein; higher = more binding): -0.0158
C[C@]12C[C@H](O)[C@H]3[C@@H](CCC4=CC(=O)CC[C@@]43C)[C@@H]1CC[C@@H]2C(=O)CO — koff (CYP11B1 (Homo sapiens, UniProt P15538, V320A); stopped-flow; nanodiscs; added: excess cyclodextrin): > 5 s⁻¹
Nc1cc(Nc2ccc(C(F)(F)F)cc2)n2ncnc2n1 — robust Z-score (pyrD; enzyme activity, inhibitor, colorimetric HTS, measured: DCIP reduction; 3 µM; direction not given): 17.8
CCc1c(C#N)c(SC(C(N)=O)c2ccccc2)nc(N(C)CC(=O)NC)c1C#N (stereo not shown) — degradation (DNMT1 (Homo sapiens, UniProt P26358); degrader, western blot; HCT-116; 500 nM, 2 h): ~50%
Cc1cc(NC(=O)C2CCc3cc(Cl)ccc3O2)n(C2CCS(=O)(=O)C2)n1 (stereo not shown) — Emax (Kir3.1/Kir3.4; thallium flux, activator; HEK293; relative to: standard compound): 58%
CCCCCCCCc1ccc(Nc2cc(C)nc3ncnn23)cc1 — robust Z-score (pyrD; enzyme activity, inhibitor, colorimetric HTS, measured: DCIP reduction; 3 µM; direction not given): 20
COc1ccc(/C=C2\SC(=O)N(CC(=O)c3ccc([N+](=O)[O-])cc3)C2=O)cc1 — log IC50 (AKR1B1; enzyme activity, inhibitor): 2.46 log nM

Repeated from above:
CCc1c(C#N)c(SC(C(N)=O)c2ccccc2)nc(N(C)CC(=O)NC)c1C#N (stereo not shown) — degradation (DNMT1 (Homo sapiens, UniProt P26358); degrader, western blot; HCT-116; 500 nM, 2 h): ~50%
Cc1cc(NC(=O)C2CCc3cc(Cl)ccc3O2)n(C2CCS(=O)(=O)C2)n1 (stereo not shown) — Emax (Kir3.1/Kir3.4; thallium flux, activator; HEK293; relative to: standard compound): 58%
